# Experimental data from different studies.
# Numbered parts are unrelated; each lists some results of a single study. Changes are numbered by the printed parent chain.

# Sample 1
# Target: RING finger protein unkempt homolog, zinc fingers 1-6, GST-SBP tag (UNK, Homo sapiens, UniProt Q9C0B0, residues 30-357)
# UniProt Q9C0B0, sequence (30-357, looked up): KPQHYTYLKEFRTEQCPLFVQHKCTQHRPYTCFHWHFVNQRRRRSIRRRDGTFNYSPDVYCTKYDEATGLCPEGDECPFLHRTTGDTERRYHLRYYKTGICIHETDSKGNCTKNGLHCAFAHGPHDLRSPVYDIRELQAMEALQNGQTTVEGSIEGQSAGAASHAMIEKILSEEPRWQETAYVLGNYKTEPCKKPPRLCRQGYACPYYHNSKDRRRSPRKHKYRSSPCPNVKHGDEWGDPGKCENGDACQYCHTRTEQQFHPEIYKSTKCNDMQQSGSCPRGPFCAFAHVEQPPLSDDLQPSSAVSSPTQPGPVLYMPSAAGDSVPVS
# Method: RNA Bind-n-Seq
# Form: RNA
# Medium: in vitro
# Concentration: not given
# Notes: RNA with constant flanks, human and mouse sites, ends assumed
# Relative to: input RNA pool
# Reading: higher = stronger binding
# All sequences stand within: GGGAGUUCUACAGUCCGACGAUC … CAACAGAGGAUUGAGCAUCA
Oligonucleotide,bound/input enrichment
GGAACUGUGGUCCAUGGGAAAGUCUUACAGUAUUACCAGGAGUCUGAGAAACCUGAGGAGUUAGGAUCUGUAACUGUACAAAAAGAAUAUUCAUCCUCCUUUGACCGAGUUAUCAAAGAG,0.245 ratio
GAAAGAACUGUUCCAAGAAUAUUUGUCAAUGGUACUUUUAUUGGAGGUGCAACUGACACUCAUAGGCUUCACAAAGAAGGAAAAUUGCUCCCACUAGUUCAUCAGUGUUAUUUAAAAAAA,8.36 ratio
GGAGUAGAAGUCCAUCCUCCCCCCAACCUCCUGACCCAUUCAUAAAUGCUGAGAAUGUCUCUCAUGGGAACACUGUUAAUGACCCACACAGGAUAAGCUGAAUGCAAAGUUAUUUGCAGG,0.277 ratio
ACAAUUCUUCAAGAAAAACUUCAAGAAAUCAGAAAACAUUAUCUGUCAUUAAAAUCUGAAGUAGCUUCCAUUGAUCGGAGGAGAAAGCGUUUAAAGAAGAAAGAGAGAGAAAGUGCUGCU,1.18 ratio
ACCAUCUAUUCUGCAACCAAGACUUUUGUAGAUUUCUUCUCUCAGUGCCUCCAUGAGGAGUAUAGGAGCAAGGGCGUCUUUGUGCAGAGUGUCCUGCCAUACUUCGUAGCUACAAAACUG,0.254 ratio
AACUUCUCCGACUACAUCCGUGGAGGCAUCGUCAGUCAGGUCAAAGUACCUAAGAAGAUUAGCUUUAAAUCCUUGGUGGCCUCACUGGCAGAACCUGACUUUGUGGUGACGGACUUCGCC,0.191 ratio
GGCUUCGUGUCCUGCUUGUAAGAAAGAGAUUCAGUUGGUUAUUAAAGUUUUUAUAGCAUAGUUGAGUCAGUCACAGAGAAAUACUAGGAGGACCAGGUCAUUUAUCAAAAAAAUCAGUAU,0.417 ratio
GGACUAGAAGGGGAAGAUGAAGGAGCCAUAAGUAUGCUUUCUGACAAUACCGCUAAGCUAACAUCAGCUGUUAGUUCUUUGCCAGAACUCCUUGAGAAAAAAAGACUUAUUGAUCUCCAU,0.11 ratio

# Sample 2
# Target: Interferon regulatory factor 3, full length, phosphomimetic (IRF3, Homo sapiens, UniProt Q14653, residues 1-427, S386D/S396D/S398D/S402D/T404D/S405D)
# Method: protein-binding microarray
# Form: double-stranded DNA, one strand shown
# Medium: in vitro
# Concentration: 2540 nM top
# Notes: 60-bp whole probe
# Together with: salmon DNA 0.4 mg/ml
# Relative to: random background probes
# Reading: higher = stronger binding
# All sequences stand within: GCCTAGCAC … GTCTTGATTCGCTTGACGCTGCTG
# Target sequence (chain): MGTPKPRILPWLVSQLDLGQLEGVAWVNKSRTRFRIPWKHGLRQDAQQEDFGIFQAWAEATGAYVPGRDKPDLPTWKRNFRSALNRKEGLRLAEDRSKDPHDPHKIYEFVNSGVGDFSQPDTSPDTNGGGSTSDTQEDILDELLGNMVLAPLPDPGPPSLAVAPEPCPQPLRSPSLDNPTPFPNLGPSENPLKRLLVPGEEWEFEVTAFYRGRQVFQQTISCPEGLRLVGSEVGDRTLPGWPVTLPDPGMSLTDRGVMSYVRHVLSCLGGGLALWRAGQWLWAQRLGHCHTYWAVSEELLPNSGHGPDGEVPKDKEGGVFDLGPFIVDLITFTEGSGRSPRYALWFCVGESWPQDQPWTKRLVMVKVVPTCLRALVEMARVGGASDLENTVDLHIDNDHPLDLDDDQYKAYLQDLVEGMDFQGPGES
Oligonucleotide,fitted relative affinity [z-score]
TTGGAACTGAGACTGGATTAGTGCTAG,-0.506
GACGATTCCATTTTCGAGACGTGCTAG,3.06
TCAACTTTGACTTAAGAACTGTGCTAG,-0.188
TCTCTTTTTGCTTTCTTTATGTGCTAG,2.24
GACGGTCTCGGACTGGGGAAGTGCTAG,0.028
TCATTTCTCTTTCATTGCACTGTGCTA,3.76
TGAGTCTTCCCTTTTAAGTTGTGCTAG,2.02

# Sample 3
# Target: CCNE2, cyclin fold, Cln2 fusion (human)
# Method: yeast growth competition, sequencing
# Medium: yeast
# Notes: weak parent motif
# Relative to: not given
# Reading: higher = stronger binding
# Parent: PKMYT1 docking peptide (human); SFEPRNLLSLFED
Substitution,normalised enrichment score
S1C,0.227
S9V,0.541
E3V,0.916
P4E,-0.279
R5N,-0.118
L8G,-0.757
E3T,-0.528
P4M,0.184
S1P,0.176

# Single results of other studies
Substance,target,assay,test system,conditions,scale,quantity,result
"PhoQ, residues 284 288 289 292 302 303 NLSRDF","PhoP, residues 12 14 15 18 19 AQALL (Escherichia coli, UniProt P23836)","Sort-seq, measured: YFP reporter",E. coli,"PhoQ-PhoP variant library, together with: 10 µM Mg2+","relative to: high Mg2+ state, higher = stronger signaling",fold induction,17.8

# Repeated from above (sample 1):
Oligonucleotide,bound/input enrichment
GGAACUGUGGUCCAUGGGAAAGUCUUACAGUAUUACCAGGAGUCUGAGAAACCUGAGGAGUUAGGAUCUGUAACUGUACAAAAAGAAUAUUCAUCCUCCUUUGACCGAGUUAUCAAAGAG,0.245 ratio
GGACUAGAAGGGGAAGAUGAAGGAGCCAUAAGUAUGCUUUCUGACAAUACCGCUAAGCUAACAUCAGCUGUUAGUUCUUUGCCAGAACUCCUUGAGAAAAAAAGACUUAUUGAUCUCCAU,0.11 ratio
GGAGUAGAAGUCCAUCCUCCCCCCAACCUCCUGACCCAUUCAUAAAUGCUGAGAAUGUCUCUCAUGGGAACACUGUUAAUGACCCACACAGGAUAAGCUGAAUGCAAAGUUAUUUGCAGG,0.277 ratio
GAAAGAACUGUUCCAAGAAUAUUUGUCAAUGGUACUUUUAUUGGAGGUGCAACUGACACUCAUAGGCUUCACAAAGAAGGAAAAUUGCUCCCACUAGUUCAUCAGUGUUAUUUAAAAAAA,8.36 ratio
